Experimental data from different studies.
Lines come from different studies, so protocols differ. Several values in a cell are separate wells, animals, samples, runs or records. Numbers after ± are the reported error.
USP5: Ubiquitin carboxyl-terminal hydrolase 5 (USP5, Homo sapiens, UniProt P45974)
Protein-S-isoprenylcysteine O-methyltransferase: Protein-S-isoprenylcysteine O-methyltransferase (Homo sapiens, UniProt O60725)
Coelenterazine h 2-monooxygenase: Coelenterazine h 2-monooxygenase (Renilla reniformis, UniProt P27652)
PTGS2: Prostaglandin G/H synthase 2 (PTGS2, Homo sapiens, UniProt P35354)
CYSLTR1: Cysteinyl leukotriene receptor 1 (CYSLTR1, Homo sapiens, UniProt Q9Y271)

O=C1Nc2ccccc2/C1=N/N=C1\C(=O)Nc2ccccc21  inhibition (USP5; enzyme activity, inhibitor; 17 µM): 87%
CCCCCCCCN(CCC(=O)Nc1ccccc1)C(=O)c1ccc(NC(C)=O)cc1  inhibition (Protein-S-isoprenylcysteine O-methyltransferase; enzyme activity; Sf9 membranes; 50 µM, together with: [3H]S-adenosylmethionine, biotin-farnesyl-L-cysteine): 10%
CC(=O)n1cc([C@H]2C=C(C(=O)N3CCN(Cc4ccc5c(c4)OCO5)CC3)O[C@@H](OCc3ccc(CO)cc3)C2)c2ccccc21  inhibition (Coelenterazine h 2-monooxygenase; luciferase activity, inhibitor, luminescence counter-screen; concentration not given, test 3 new dilution): 66.1% and 64.9%
CO[C@@H]1OC[C@@H](O)[C@H](O)[C@H]1O  inhibition (PTGS2; enzyme activity, inhibitor; 0.98 µg/mL): 22.7%
COc1ccc(S(=O)(=O)N2CCc3ccccc3C2)cc1N1CCN(C(=O)c2ccc(F)cc2C(F)(F)F)CC1  inhibition (Gastrin/cholecystokinin type B receptor (CCKBR, Homo sapiens, UniProt P32239); ligand displacement, radioligand; 1 µM): 9.7%
CCC(=O)/C=C\c1nnc2cc3c(cc2c1-c1ccc(CC)o1)OCCO3  inhibition (USP5; enzyme activity, inhibitor; 17 µM): 74%
CS(=O)(=O)c1ccc(-n2cc(C=NN=c3[nH]c(-c4ccc([N+](=O)[O-])cc4)cs3)c(-c3ccc([N+](=O)[O-])cc3)n2)cc1  inhibition (PTGS2; enzyme activity; 0.1 µM): 15.9%
NC(=O)[C@@H](O)C[C@H]1CCc2sc3ncnc(O[C@H]4CC[C@H](N5CCOCC5)CC4)c3c21  inhibition (cAMP-dependent protein kinase catalytic subunit gamma (PRKACG, Homo sapiens, UniProt P22612); enzyme activity, inhibitor; 10 µM): 4%
CC(=O)C12NC(C)(C)CC1(C)C(=O)C1=C2c2c(c3c4n2C(C)(C)CC2=C4C4(CC(C)(C)NC(C)(C4)C2=O)CC3(C)C)C(=O)C(C)(C)N1 (single isomer, unassigned; (-))  inhibition (Potassium voltage-gated channel subfamily KQT member 4 (KCNQ4, Homo sapiens, UniProt P56696); ion current, antagonist, whole-cell patch clamp; HEK293T; 10 µM): 28.06 ± 0.11%
O=C(O)CCCN1C(=O)C(=C2SC(=S)N(CCCC(=O)O)C2=O)SC1=S  inhibition (USP5; enzyme activity, inhibitor; 17 µM): 0%
N=C(N)NCCCC(NC(=O)C(CC(=O)NO)Cc1ccc2ccccc2c1)C(=O)NC(Cc1c[nH]c2ccccc12)C(=O)NC(CCC(=O)O)C(N)=O (stereo not drawn)  inhibition (Matrix metalloproteinase-17 (Homo sapiens, UniProt Q9ULZ9); 1 µM): 1%
CCCCCCCCN(CCC(=O)Nc1ccccc1)C(=O)c1cnco1  inhibition (Protein-S-isoprenylcysteine O-methyltransferase; enzyme activity; Sf9 membranes; 50 µM, together with: [3H]S-adenosylmethionine, biotin-farnesyl-L-cysteine): 56%
F[C@@H]1[C@H](c2ccc(-c3cnc(N4CCOCC4)nc3)cc2)[C@H](F)[C@H](F)C[C@@H]1F  hepatic clearance (liver microsome stability; human liver microsomes; 1 µM, without NADPH): 3.9 mL/min/kg
O=C1c2sc(-c3ccc(N4CCC(CO)CC4)nc3F)nc2CCN1c1cccnc1  inhibition (CYSLTR1; ligand displacement, radioligand; 1 µM): 3%
CN(C)C(=O)CNC(=O)c1ccc(C2CCCCC2)cc1  hepatic clearance (liver microsome stability; mouse liver microsomes; 1 µM): 79 mL/min/kg
Cn1ccc2cc(-n3c(=O)[nH]c4sc5c(c4c3=O)CCCC5)ccc21  inhibition (CYSLTR1; ligand displacement; 10 µM): 3%
C/C=C/C(=O)Nc1ccc2nc(NCCCCCN(C)C)nc(NCCCCCCN(C)C)c2c1  inhibition (Protein arginine N-methyltransferase 6 (PRMT6, Homo sapiens, UniProt Q96LA8); enzyme activity, inhibitor, radiometric; 10 µM): 55%
CC=C(C)C(=O)OC1CC2C(C=C(C)C3C(OC(C)=O)CC(=O)C13C)OC(=O)C2C (stereo not drawn)  inhibition (PTGS2; enzyme activity, inhibitor; 0.12 µg/mL): 0%
O=C1CO[C@H](CNC(=O)C2(c3ccc(Cl)cc3)CC2)CN1C1Cc2ccccc2C1  inhibition (C-C chemokine receptor type 10 (CCR10, Homo sapiens, UniProt P46092); β-arrestin recruitment, antagonist; 1 µM): -4%
CCOC(=O)C1(C2(O)C(=O)c3ccccc3C2=O)CCCC1=O (stereo not drawn)  inhibition (USP5; enzyme activity, inhibitor; 17 µM): 15%
CCCCCCCCN(CCC(=O)Nc1ccccc1)C(=O)c1nc[nH]n1  inhibition (Protein-S-isoprenylcysteine O-methyltransferase; enzyme activity; Sf9 membranes; 50 µM, together with: [3H]S-adenosylmethionine, biotin-farnesyl-L-cysteine): 0%
O=C1C2=[N+]([O-])[C@H]3CCCC[C@H]3[N+]([O-])=C2c2ccccc21  inhibition (USP5; enzyme activity, inhibitor; 17 µM): 73%
CC(C)Oc1ccc(CNCCC2(C(C)C)CCOC(C)(C)C2)cc1 (stereo not drawn)  inhibition (Coelenterazine h 2-monooxygenase; luciferase activity, inhibitor, luminescence counter-screen; concentration not given, test 1): 66.4% and 66.3%
COc1cc(C=NCCN=Cc2ccc(O)c(OC)c2)ccc1O  inhibition (USP5; enzyme activity, inhibitor; 17 µM): 11%
Cc1ccc(-c2nn(-c3ccc(S(C)(=O)=O)cc3)cc2C=NN=c2[nH]c(-c3ccc(Br)cc3)cs2)cc1 (mixture of isomers)  inhibition (PTGS2; enzyme activity; 10 µM): 71.8%
COc1ccc(-c2ccc(CNCCc3ccc(S(N)(=O)=O)cc3)o2)cc1Cl  inhibition (D(3) dopamine receptor (DRD3, Homo sapiens, UniProt P35462); enzyme activity, inhibitor; 10 µM): 23.2%
CCOC(=O)c1c(C)oc2c1C(=O)C(=NO)c1ccccc1-2  inhibition (USP5; enzyme activity, inhibitor; 17 µM): 78%
C/C=C(/C)C(=O)O[C@@H]1C=C(C)CC[C@]2(O)[C@@H](C(C)C)CC(=O)[C@]12C  inhibition (PTGS2; enzyme activity, inhibitor; 3.9 µg/mL): 0%
COc1cccc(-c2cc(F)c(NC(=O)Nc3sc(C)nc3C(=O)O)c(F)c2)c1  inhibition (Dihydroorotate dehydrogenase (quinone), mitochondrial (DHODH, Homo sapiens, UniProt Q02127); enzyme activity, DCIP colorimetric; 50.00 µM): 24.7% and 21.2% and 23%
CS(=O)(=O)c1ccc(-n2cc(C=NN=c3[nH]c(-c4ccc(Br)cc4)cs3)c(-c3ccc([N+](=O)[O-])cc3)n2)cc1 (mixture of isomers)  inhibition (PTGS2; enzyme activity; 100 µM): 86.5%
COc1ccccc1Nc1nc(NCC2CCCO2)c2ccccc2n1 (stereo not drawn)  inhibition (Coelenterazine h 2-monooxygenase; luciferase activity, inhibitor, luminescence counter-screen; concentration not given, test 2): 97% and 106%
CN(C)C/C=C/C(=O)Nc1ccc2nc(NCCCCCN(C)C)nc(NCCCCCCN(C)C)c2c1  inhibition (Protein arginine N-methyltransferase 3 (PRMT3, Homo sapiens, UniProt O60678); enzyme activity, inhibitor, radiometric; 10 µM): 79%
Clc1cccc2c(NCCCN3CCOCC3)cnnc12  inhibition (USP5; enzyme activity, inhibitor; 17 µM): 20%
Cc1ccc(-c2nn(-c3ccc(S(C)(=O)=O)cc3)cc2C=NN=c2[nH]c(-c3ccc([N+](=O)[O-])cc3)cs2)cc1  inhibition (PTGS2; enzyme activity; 0.1 µM): 22.8%
C[Si](C)(C)C[C@H](CN)CC(=O)O  inhibition (P2Y receptor, rat; binding, radioligand binding; 250 µM, together with: labelled ATP analogue): 21%
O=C1c2sc(-c3ccc(N4CCC(F)C4)nc3F)nc2CCN1c1cccnc1 (stereo not drawn)  inhibition (L-type Ca2+ channel, dihydropyridine site; radioligand binding, BioPrint binding panel; 1 µM, together with: antagonist radioligand): -3%

Repeated from above:
Clc1cccc2c(NCCCN3CCOCC3)cnnc12  inhibition (USP5; enzyme activity, inhibitor; 17 µM): 20%
Cc1ccc(-c2nn(-c3ccc(S(C)(=O)=O)cc3)cc2C=NN=c2[nH]c(-c3ccc([N+](=O)[O-])cc3)cs2)cc1  inhibition (PTGS2; enzyme activity; 0.1 µM): 22.8%
